Experimental data pooled from the literature.
Each numbered part is a random draw from the data of one study; scales do not carry over between parts. Several values in a cell are separate wells, animals, samples, runs or records.
Chain of UniProt Q9UJQ4 (whole entry, looked up): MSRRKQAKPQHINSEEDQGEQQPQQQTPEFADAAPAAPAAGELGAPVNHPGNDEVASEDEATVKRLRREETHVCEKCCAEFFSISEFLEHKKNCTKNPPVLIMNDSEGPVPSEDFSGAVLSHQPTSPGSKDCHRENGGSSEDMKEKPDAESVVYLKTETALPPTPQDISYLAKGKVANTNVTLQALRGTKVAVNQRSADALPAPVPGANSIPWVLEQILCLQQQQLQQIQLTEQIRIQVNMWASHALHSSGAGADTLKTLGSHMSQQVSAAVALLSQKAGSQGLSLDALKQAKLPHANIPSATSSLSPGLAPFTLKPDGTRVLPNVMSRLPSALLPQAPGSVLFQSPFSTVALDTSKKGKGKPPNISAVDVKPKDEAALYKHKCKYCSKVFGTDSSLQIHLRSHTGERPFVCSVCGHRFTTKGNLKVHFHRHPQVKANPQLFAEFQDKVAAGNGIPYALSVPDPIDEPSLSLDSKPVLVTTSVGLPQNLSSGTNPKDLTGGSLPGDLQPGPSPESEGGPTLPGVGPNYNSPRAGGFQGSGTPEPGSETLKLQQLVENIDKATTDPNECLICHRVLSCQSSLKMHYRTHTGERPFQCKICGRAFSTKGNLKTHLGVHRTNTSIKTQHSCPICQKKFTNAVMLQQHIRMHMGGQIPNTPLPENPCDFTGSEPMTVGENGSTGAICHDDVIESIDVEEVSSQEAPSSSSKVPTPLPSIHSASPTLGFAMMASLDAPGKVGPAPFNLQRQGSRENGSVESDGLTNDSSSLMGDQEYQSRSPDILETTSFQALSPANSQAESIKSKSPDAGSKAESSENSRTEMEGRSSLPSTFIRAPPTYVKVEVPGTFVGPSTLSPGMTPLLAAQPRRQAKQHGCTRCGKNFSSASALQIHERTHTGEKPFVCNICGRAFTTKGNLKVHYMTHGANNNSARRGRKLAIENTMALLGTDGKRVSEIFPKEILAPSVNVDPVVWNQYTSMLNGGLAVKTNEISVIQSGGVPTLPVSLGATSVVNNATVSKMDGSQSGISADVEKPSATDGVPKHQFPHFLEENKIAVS
Chain of UniProt Q9UKT9 (whole entry, looked up): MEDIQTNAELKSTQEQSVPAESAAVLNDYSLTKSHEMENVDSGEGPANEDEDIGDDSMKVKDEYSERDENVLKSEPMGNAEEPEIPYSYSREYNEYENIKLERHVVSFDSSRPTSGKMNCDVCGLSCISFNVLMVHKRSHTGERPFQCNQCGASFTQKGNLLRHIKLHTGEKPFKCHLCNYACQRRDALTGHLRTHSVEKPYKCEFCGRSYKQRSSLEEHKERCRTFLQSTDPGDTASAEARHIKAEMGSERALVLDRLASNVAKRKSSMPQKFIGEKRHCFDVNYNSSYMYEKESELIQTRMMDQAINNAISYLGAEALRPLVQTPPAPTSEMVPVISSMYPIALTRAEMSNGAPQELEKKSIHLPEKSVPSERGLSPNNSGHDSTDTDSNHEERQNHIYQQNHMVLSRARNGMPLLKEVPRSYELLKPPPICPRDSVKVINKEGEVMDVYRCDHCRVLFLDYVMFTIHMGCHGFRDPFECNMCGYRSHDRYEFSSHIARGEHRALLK

Series 1 — cell line: MDA-MB-468; read-out: cell viability; method: CellCounting-Lite; tested at: 666.7 nM; temperature: 37 °C; reading: higher = more viable cells
Compound | luminescence signal
CCn1cnc2c(NCc3nc4cc(Cl)c(Cl)cc4[nH]3)nc(N3CCN(C(=O)[C@H](C)NC(C)=O)CC3)nc21 | 54900 a.u. and 49600 a.u. and 40000 a.u.
CC(=O)N1CCN(c2nc(NCc3nc4cc(Cl)c(Cl)cc4[nH]3)c3ncn(C)c3n2)CC1 | 30700 a.u. and 37200 a.u. and 44100 a.u.
CCn1cnc2c(NCc3nc4cc(Cl)c(Cl)cc4[nH]3)nc(N3CCN(C(=O)CNC(C)=O)CC3)nc21 | 28400 a.u. and 32300 a.u. and 32600 a.u.
CCn1cnc2c(NCc3nc4ccc(F)c(F)c4[nH]3)nc(N3CCn4ncnc4C3)nc21 | 29900 a.u. and 35800 a.u. and 28800 a.u.
CCn1cnc2c(NCc3nc4cc(Cl)c(Cl)cc4[nH]3)nc(N3CCN(C(=O)c4cccnc4)CC3)nc21 | 29900 a.u. and 33400 a.u. and 32700 a.u.
Cn1cc(-n2cnc3c(NCc4nc5cc(Cl)c(Cl)cc5[nH]4)nc(N4CCNCC4)nc32)cn1 | 48500 a.u. and 33300 a.u. and 38300 a.u.
CC(=O)N1CCN(c2nc(NCc3nc4cc(Cl)c(Cl)cc4[nH]3)c3ncn(-c4cnn(C)c4)c3n2)CC1 | 30800 a.u. and 34200 a.u. and 36000 a.u.
CCCCOc1nc(NCc2nc3cc(Cl)c(Cl)cc3[nH]2)c2ncn(CC)c2n1 | 36300 a.u. and 40400 a.u. and 39500 a.u.

Series 2 — mode: degrader
SMILES: Cn1cc(-c2cccc(CN3CCC4(CC3)COc3c4ccc4c3CN([C@H]3CCC(=O)NC3=O)C4=O)c2)cn1
CRBN/Zinc finger protein Helios: CRBN/Zinc finger protein Helios (Homo sapiens, UniProt Q96SW2+Q9UKS7)
Chain of UniProt Q9UKS7 (whole entry, looked up): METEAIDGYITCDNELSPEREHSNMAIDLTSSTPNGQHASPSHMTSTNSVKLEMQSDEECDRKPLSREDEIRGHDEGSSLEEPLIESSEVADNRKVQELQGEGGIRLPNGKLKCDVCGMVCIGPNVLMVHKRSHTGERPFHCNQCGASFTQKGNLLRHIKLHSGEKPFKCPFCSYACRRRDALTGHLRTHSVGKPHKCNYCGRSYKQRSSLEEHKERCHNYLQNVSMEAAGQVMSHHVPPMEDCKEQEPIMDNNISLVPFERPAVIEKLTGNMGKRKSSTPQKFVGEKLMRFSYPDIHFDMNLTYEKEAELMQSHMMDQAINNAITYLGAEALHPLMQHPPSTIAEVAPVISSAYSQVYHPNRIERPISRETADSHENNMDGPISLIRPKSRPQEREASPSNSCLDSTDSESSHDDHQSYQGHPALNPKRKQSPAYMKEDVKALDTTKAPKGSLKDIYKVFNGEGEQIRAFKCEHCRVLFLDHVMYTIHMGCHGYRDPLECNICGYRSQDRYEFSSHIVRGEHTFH
Chain of UniProt Q96SW2 (whole entry, looked up): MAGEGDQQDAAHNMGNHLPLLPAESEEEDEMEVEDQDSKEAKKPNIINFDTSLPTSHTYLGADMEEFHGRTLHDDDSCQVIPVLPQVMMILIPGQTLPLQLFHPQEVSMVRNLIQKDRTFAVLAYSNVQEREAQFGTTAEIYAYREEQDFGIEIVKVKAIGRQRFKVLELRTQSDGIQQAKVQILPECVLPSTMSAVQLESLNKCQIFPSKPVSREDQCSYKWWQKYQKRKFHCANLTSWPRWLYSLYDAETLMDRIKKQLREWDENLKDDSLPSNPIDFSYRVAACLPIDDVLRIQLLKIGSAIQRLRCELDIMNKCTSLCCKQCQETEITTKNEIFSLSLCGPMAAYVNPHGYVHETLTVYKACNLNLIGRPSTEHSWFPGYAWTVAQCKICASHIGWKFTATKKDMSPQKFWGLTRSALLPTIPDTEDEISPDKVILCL
IKZF4: Zinc finger protein Eos (IKZF4, Homo sapiens, UniProt Q9H2S9)
Chain of UniProt Q9H2S9 (whole entry, looked up): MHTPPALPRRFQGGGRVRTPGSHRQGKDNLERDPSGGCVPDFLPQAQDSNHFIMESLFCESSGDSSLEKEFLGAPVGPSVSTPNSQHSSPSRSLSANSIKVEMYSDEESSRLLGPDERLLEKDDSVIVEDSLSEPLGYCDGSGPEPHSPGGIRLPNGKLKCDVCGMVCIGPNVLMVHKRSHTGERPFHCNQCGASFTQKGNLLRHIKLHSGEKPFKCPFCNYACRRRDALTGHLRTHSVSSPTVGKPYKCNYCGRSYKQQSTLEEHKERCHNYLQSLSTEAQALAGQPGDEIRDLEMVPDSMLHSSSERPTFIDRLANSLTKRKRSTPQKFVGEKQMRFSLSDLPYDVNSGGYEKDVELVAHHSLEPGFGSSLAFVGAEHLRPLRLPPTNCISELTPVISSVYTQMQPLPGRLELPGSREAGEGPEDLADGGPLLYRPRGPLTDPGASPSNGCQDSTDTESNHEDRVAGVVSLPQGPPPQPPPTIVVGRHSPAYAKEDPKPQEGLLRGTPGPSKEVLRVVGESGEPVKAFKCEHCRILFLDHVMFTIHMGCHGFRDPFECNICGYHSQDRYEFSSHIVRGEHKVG
CSNK1A1: Casein kinase I isoform alpha (CSNK1A1, Homo sapiens, UniProt P48729)
Chain of UniProt P48729 (whole entry, looked up): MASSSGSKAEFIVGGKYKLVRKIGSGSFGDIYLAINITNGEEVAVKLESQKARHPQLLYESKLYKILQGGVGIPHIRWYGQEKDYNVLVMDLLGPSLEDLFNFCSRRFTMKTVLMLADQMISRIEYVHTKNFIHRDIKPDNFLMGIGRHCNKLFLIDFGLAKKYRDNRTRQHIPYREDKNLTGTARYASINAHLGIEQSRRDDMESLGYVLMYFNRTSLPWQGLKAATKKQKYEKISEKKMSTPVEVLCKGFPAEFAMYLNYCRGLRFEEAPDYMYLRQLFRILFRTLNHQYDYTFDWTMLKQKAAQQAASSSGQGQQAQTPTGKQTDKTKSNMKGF
target | method | cells | tested at | time | remaining protein
CRBN/Zinc finger protein Helios | flow cytometry | Jurkat | 1000 nM |  | 35% and 37.8%
IKZF4 | HiBiT | HEK293 | 1000 nM | 3 h | 126% and 111%
IKZF4 | HiBiT | HEK293 | 333.3 nM | 6 h | 100% and 107%
CRBN/Zinc finger protein Helios | flow cytometry | primary human regulatory T cells | 1.372 nM | 3 h | 107% and 98.5%
CRBN/Zinc finger protein Helios | flow cytometry | Jurkat | 0.5 nM |  | 102% and 92.2%
Zinc finger protein Aiolos (Homo sapiens, UniProt Q9UKT9) | HiBiT | HEK293 | 1.524 nM |  | 97% and 98.1%
CSNK1A1 | HiBiT | HEK293 | 41.15 nM |  | 104% and 106%
Sal-like protein 4 (SALL4, Homo sapiens, UniProt Q9UJQ4) | HiBiT | HEK293 | 3333.33 nM |  | 65.4% and 69.2%
IKZF4 | HiBiT | HEK293 | 111.1 nM | 3 h | 102% and 101%
DNA-binding protein Ikaros (Homo sapiens, UniProt Q13422) | HiBiT | HEK293 | 41.15 nM |  | 97.8% and 96.1%
Eukaryotic peptide chain release factor GTP-binding subunit ERF3A (GSPT1, Homo sapiens, UniProt P15170) | HiBiT | HEK293 | 123.5 nM |  | 97.5% and 101%
CSNK1A1 | HiBiT | HEK293 | 13.72 nM |  | 103% and 101%
CRBN/Zinc finger protein Helios | flow cytometry | Jurkat | 12 nM |  | 58% and 66.9%

Series 3 — medium: CES1-/- mouse GI tissue homogenate; time: 60 min
SMILES | remaining compound [%]
CC(=O)N[C@@H](Cc1c[nH]c2ccccc12)C(=O)N[C@@H](CCC(=O)C=[N+]=[N-])C(N)=O | 79
[2H]C([2H])([2H])OC(=O)[C@H](CCC(=O)C=[N+]=[N-])NC(=O)[C@H](Cc1c[nH]c2ccccc12)NC(C)=O | 2
COCCOCCOC(=O)[C@H](CCC(=O)C=[N+]=[N-])NC(=O)[C@H](Cc1c[nH]c2ccccc12)NC(C)=O | 1
COCCOCCOC(=O)[C@H](CCC(=O)C=[N+]=[N-])NC(=O)[C@H](Cc1c[nH]c2ccccc12)NC(=O)CN(C)C | 3

Series 4 — read-out: thermal unfolding; method: differential scanning fluorimetry; tested at: 5.5 µM; reading: higher = more unfolded
Structure (SMILES): C[C@@H]1CN(c2ccc(-c3cc(C(=O)NCCOCCOCCOCCOCCNC(=O)Cn4cc(-c5[nH]cc(C(=O)N[C@@H](CC(N)=O)c6ccc(F)c(Cl)c6)c5-c5ccc(Cl)cc5F)cn4)ccc3F)cc2NC(=O)c2c[nH]c(=O)cc2C(F)(F)F)C[C@H](C)N1C
WDR5: WD repeat-containing protein 5 (WDR5, Homo sapiens, UniProt P61964)
DCAF1: DDB1- and CUL4-associated factor 1 (DCAF1, Homo sapiens, UniProt Q9Y4B6)
Chain of UniProt Q9Y4B6 (whole entry, looked up): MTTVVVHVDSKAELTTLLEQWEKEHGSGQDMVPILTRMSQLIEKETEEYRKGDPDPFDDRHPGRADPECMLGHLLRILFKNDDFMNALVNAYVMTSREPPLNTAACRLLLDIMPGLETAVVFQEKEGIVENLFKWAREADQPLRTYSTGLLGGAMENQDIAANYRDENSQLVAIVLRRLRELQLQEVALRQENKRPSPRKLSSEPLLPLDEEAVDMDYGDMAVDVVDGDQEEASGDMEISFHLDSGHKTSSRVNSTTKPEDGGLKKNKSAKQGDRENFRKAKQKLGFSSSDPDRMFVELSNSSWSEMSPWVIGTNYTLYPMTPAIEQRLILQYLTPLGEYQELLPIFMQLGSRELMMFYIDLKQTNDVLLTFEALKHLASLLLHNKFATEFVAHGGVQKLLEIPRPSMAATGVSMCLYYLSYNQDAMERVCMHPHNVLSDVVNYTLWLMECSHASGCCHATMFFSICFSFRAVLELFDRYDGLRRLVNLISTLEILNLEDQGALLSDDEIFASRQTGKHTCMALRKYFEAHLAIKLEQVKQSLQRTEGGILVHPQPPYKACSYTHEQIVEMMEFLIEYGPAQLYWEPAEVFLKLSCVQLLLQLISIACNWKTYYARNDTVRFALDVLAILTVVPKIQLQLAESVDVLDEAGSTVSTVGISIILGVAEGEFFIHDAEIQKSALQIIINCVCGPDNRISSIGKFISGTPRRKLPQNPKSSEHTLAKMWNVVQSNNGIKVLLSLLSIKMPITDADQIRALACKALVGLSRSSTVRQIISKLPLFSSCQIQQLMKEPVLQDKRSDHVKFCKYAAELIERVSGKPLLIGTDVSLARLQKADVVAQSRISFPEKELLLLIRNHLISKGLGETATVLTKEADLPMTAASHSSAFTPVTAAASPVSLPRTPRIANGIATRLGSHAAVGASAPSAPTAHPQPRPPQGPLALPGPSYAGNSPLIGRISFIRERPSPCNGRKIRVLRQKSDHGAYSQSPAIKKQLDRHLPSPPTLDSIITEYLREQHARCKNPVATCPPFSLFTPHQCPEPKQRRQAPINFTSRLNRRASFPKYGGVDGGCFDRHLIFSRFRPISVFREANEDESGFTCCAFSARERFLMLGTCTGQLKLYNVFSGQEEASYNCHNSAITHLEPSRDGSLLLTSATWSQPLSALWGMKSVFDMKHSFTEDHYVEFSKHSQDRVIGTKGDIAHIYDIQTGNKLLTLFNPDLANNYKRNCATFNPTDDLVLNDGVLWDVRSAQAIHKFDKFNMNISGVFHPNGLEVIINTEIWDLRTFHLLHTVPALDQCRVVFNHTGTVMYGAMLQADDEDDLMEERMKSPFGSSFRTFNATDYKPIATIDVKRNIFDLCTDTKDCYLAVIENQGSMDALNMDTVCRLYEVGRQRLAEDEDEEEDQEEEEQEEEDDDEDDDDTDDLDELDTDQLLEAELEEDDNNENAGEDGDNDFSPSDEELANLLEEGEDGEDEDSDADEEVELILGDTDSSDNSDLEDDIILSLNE
target | temperature | SYPRO Orange fluorescence
WDR5 | 35.8 °C | 14300 a.u.
WDR5 | 45.4 °C | 14300 a.u.
DCAF1 | 71.61 °C | 52700 a.u.
DCAF1 | 27 °C | 7730 a.u.
DCAF1 | 56.41 °C | 23000 a.u.
DCAF1 | 33.2 °C | 8410 a.u.
WDR5 | 79.01 °C | 20200 a.u.

For quick reference, copied from above (series 4):
target | temperature | SYPRO Orange fluorescence
WDR5 | 45.4 °C | 14300 a.u.
DCAF1 | 71.61 °C | 52700 a.u.
DCAF1 | 27 °C | 7730 a.u.
DCAF1 | 56.41 °C | 23000 a.u.
DCAF1 | 33.2 °C | 8410 a.u.
